Measurements gathered from unrelated publications.
“And” joins repeats or separate records; there may be more than shown.

CN1CCCNC(=O)c2cccc(c2)C(=O)NCCCN(C)CCCNc2cccc3c2C(=O)c2cccc(c2C3=O)NCCC1
log2 fold change (SAS; RNA-Seq, item: VPS50 mRNA; 1 µM, 6 h; baseline: untreated cells): -1.61

CNS(=O)(=O)Nc1nccc(Cc2c(C)c3ccc(Oc4ncccc4F)cc3oc2=O)c1F
IC50 (SKNBE2; cell viability; 7 days): 0.00304 µM

C=CC(=O)Nc1cccc(Cn2ncc3cnc(Nc4cnn(CCOC)c4)nc32)c1
percent of control (CDKL3 human; binding, KINOMEscan; 100 nM; lower = stronger binding): 77%

COC1CN([C@H]2CC[C@H]([C@@]3(C)Oc4c(Cl)cc(C(=O)NCc5c(SC)cc(C)[nH]c5=O)c(C)c4O3)CC2)C1
log2 fold change (RNA-seq, item: DNASE2; human, whole blood; dose not given, 24 h; baseline: pretreatment baseline): 1.22

CC(C)c1ccc(N(C)c2ccc3c(c2)OCC[C@H]3CNc2cnccc2C(=O)O)cc1
IC50 (G-361; cell growth or viability, ATP luminescence; 7 days): ≥ 10 µM

CCN(C(=O)c1cc(F)ccc1Oc1nncnc1N1CCC2(C1)CN([C@H](CCCN(C)CCOC)C(C)C)C2)C(C)C
GI50 (IMR-90; cell growth or viability; 72 h): > 10 µM

CCN(CC)CC(=O)Nc1cccc(-n2cc(-c3ccc4ccc(-c5cn(-c6cccc(NC(=O)CN(CC)CC)c6)nn5)cc4c3)nn2)c1
fold regulation (RCC4; PCR angiogenesis array, item: ITGB3; 5 x IC50, 2 h, normoxia; baseline: untreated): -1.04

Cn1ncc2cc(-c3cncc(Cl)c3N3CCC4(CCNC4=O)CC3)ccc21
log2 fold change (LS174T; gene expression, microarray, item: RPSA mRNA; concentration not given, 24 h; baseline: untreated cells): 2.55

Nc1ncc(-c2cc(-c3cnn(CC(F)(F)F)c3)ncc2F)nc1C(=O)NC1CNCC(F)C1 (stereo not drawn)
remaining binding (CDK3; KINOMEscan; 1 µM; baseline: DMSO control): 92%

c1ccc(-c2n[nH]cc2-c2ccnc3ccccc23)nc1
log2 fold change (TPK2 (Candida albicans); kinase binding, MIB/MS competition; Candida albicans lysate; 1 µM; baseline: DMSO): -0.11

CN(C)C(=O)c1ccnc(N2Cc3cn(Cc4ccc(F)cc4F)nc3C2)n1
paired-pulse ratio (mouse, hippocampal slice, Schaffer collaterals; dose not given, interstimulus interval 200; baseline: second over first response): 1.39 and 1.33 and 1.26 and 1.75 and 1.24 and 1.46

Cc1ncsc1-c1ccc(C(C)NC(=O)C2CC(O)CN2C(=O)C(NC(=O)CCCCCCCCCCN2CCCC(Nc3ncc(Cl)c(Nc4ccccc4S(=O)(=O)C(C)C)n3)C2)C(C)(C)C)cc1 (stereo not drawn)
log2 fold change (22Rv1; RNA-seq, item: ZNF747 mRNA; concentration not given; baseline: DMSO): -2.46

Excerpt of the above:
Cn1ncc2cc(-c3cncc(Cl)c3N3CCC4(CCNC4=O)CC3)ccc21
log2 fold change (LS174T; gene expression, microarray, item: RPSA mRNA; concentration not given, 24 h; baseline: untreated cells): 2.55
